Measured values of several laboratories.
± gives the spread as reported.

| SMILES | method | medium | tested at | pH | temperature | notes | logP |
| --- | --- | --- | --- | --- | --- | --- | --- |
| COc1cccc(C=NCCCN(C)CCN(C)CCCN=Cc2cccc(OC)c2O)c1O |  | 1-octanol/saline |  | pH 7.4 |  | 67Ga complex | 1.39 ± 0.01 |
| [C-]#[O+].[C-]#[O+].[C-]#[O+].[C-]#[O+].[C-]#[O+].[C-]#[O+].[Cl-].[Cl-].[Re+].[Re+].c1cnc(-c2ncccn2)nc1 | shake flask |  |  |  |  |  | 0.22 |
| CN(C)C(=S)N(C)N=Cc1ccccc1SSc1ccccc1C=NN(C)C(=S)N(C)C | stir-flask, HPLC | octanol/water |  |  |  |  | 4 ± 0.1 |
| COc1cc(OC)cc(C2=C3C(C)=C(I)C(/C=C/c4c[nH]c5ccccc45)=[N+]3[B-](F)(F)n3c(/C=C/c4c[nH]c5ccccc45)c(I)c(C)c32)c1 |  | octanol/HEPES buffer |  | pH 7.4 | room temperature |  | 1.16 |
| Cc1c(C)c(C)[c-](C)c1C.O=C1c2cccc[n+]2[Ir]([Cl])[N]1CCCCCCCCCCCc1ccc2ccc3cccc4ccc1c2c34 | shake-flask | octanol/PBS |  |  |  |  | 1.86 ± 0.19 |
| COC(=O)c1ccccc1-c1c2ccc(=O)cc-2oc2cc(OCCCCCCCC[P+](c3ccccc3)(c3ccccc3)c3ccccc3)ccc12 | shake-flask HPLC | 1-octanol/water |  |  |  |  | 1.25 ± 0.05 |
| N=C(N)NCCC[C@@H]1NC(=O)[C@H](CCCCNC(=O)CC[C@H](NC(=O)CN2CCN(CC(=O)O)CCN(CC(=O)O)CCN(CC(=O)O)CC2)C(=O)NCCCC[C@@H]2NC(=O)[C@@H](Cc3ccccc3)NC(=O)[C@H](CC(=O)O)NC(=O)CNC(=O)[C@H](CCCNC(=N)N)NC2=O)NC(=O)[C@@H](Cc2ccccc2)NC(=O)[C@H](CC(=O)O)NC(=O)CNC1=O [indium-111 labelled] |  | octanol/PBS |  | pH 7.4 | room temperature |  | -3.95 ± 0.05 |
| CC1=C2[O][Ru-]([Cl])[O+]=C2C=CN1CCCCCCCCCCCCN1C=CC2=[O+][Ru-]([Cl])[O]C2=C1C.Cc1ccc(C(C)C)cc1.Cc1ccc(C(C)C)cc1 | shake flask, ICP-MS | n-octanol/water |  |  |  | aqua complex | -0.56 |
| [Cl-].[Cl-].[Ru+2].c1ccc2nc3c4cccnc4c4ncccc4c3nc2c1.c1ccncc1.c1ccncc1.c1ccncc1.c1ccncc1 |  | n-octanol/water |  |  |  |  | -1.09 ± 0.05 |
| CN(C)[P+](c1ccccc1)(c1ccccc1)c1ccccc1 | HPLC | octanol/water | 100 µM |  |  |  | -1.29 ± 0.194 |
| CC[P+](CC)(CC)[Au-][S][C@@H]1O[C@H](COC(C)=O)[C@@H](O[C@H]2O[C@H](COC(C)=O)[C@@H](OC(C)=O)[C@H](OC(C)=O)[C@H]2OC(C)=O)[C@H](OC(C)=O)[C@H]1OC(C)=O |  | n-octanol/water |  |  |  |  | 0.45 |
| CN1C(=O)[C@@H](Cc2ccc(O)c(I)c2)NC(=O)CNC(=O)[C@H](Cc2ccc3ccccc3c2)NC(=O)[C@H](CCCNC(=N)N)NC(=O)[C@H]1CCCNC(=O)c1ccc(CNC(=O)CN2CCN(CC(=O)O)CCN(CC(=O)O)CC2)cc1 [fluorine-18 labelled] |  | octanol/water |  |  |  |  | -1.4 |
| O=C(N[c-]1cccc1)OCc1ccc(B(O)O)cc1.[Fe+2].c1cc[cH-]c1 | RP-TLC | MOPS/acetonitrile |  | pH 7.4 |  |  | 2.76 ± 0.23 |
| COCCOCCOCCOCCOCCOCCOCCOCCOCCOCCOCCOCCNC(=O)CCC1(CCC(=O)NCCOCCOCCOCCOCCOCCOCCOCCOCCOCCOCCOCCOC)c2ccccc2-c2ccc(-c3sc(-c4c5c(c(-c6sc(-c7ccc8c(c7)C(CCC(=O)NCCOCCOCCOCCOCCOCCOCCOCCOCCOCCOCCOCCOC)(CCC(=O)NCCOCCOCCOCCOCCOCCOCCOCCOCCOCCOCCOCCOC)c7ccccc7-8)c7c6OCCO7)c6nsnc46)N=S=N5)c4c3OCCO4)cc21 | shake flask | n-octanol/water |  |  |  |  | -1.25 |
| CCCCCCCC[P+](c1ccc(C)cc1)(c1ccc(C)cc1)c1ccc(C)cc1 | shake flask, HPLC | 1-octanol/water |  |  |  |  | 1.57 ± 0.02 |

Some of these lines once more:
| SMILES | method | medium | tested at | pH | temperature | notes | logP |
| --- | --- | --- | --- | --- | --- | --- | --- |
| [Cl-].[Cl-].[Ru+2].c1ccc2nc3c4cccnc4c4ncccc4c3nc2c1.c1ccncc1.c1ccncc1.c1ccncc1.c1ccncc1 |  | n-octanol/water |  |  |  |  | -1.09 ± 0.05 |
